Measurements collected from several papers.
A part holds a random share of what one study measured. Changes are numbered by the printed parent chain.

Block 1
Target: CCND3, cyclin fold, Cln2 fusion (human)
Method: yeast growth competition, sequencing
Sample: yeast
Setting: weak parent motif
Baseline: not given
Reading: higher = stronger binding
Starting sequence: SCAPER docking peptide (human); SNARRSLNFGGST; partner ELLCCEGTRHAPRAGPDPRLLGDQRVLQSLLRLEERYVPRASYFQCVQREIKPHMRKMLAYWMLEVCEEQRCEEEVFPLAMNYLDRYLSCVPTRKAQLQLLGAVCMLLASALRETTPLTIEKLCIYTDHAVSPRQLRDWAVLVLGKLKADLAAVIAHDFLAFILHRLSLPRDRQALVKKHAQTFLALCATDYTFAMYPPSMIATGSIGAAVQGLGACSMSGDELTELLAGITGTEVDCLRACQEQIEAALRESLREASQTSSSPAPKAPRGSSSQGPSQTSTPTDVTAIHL
Change	normalised enrichment score
SNARISLNFGGST [R5I]	0.155
SNARRALNFGGST [S6A]	0.237
SNARRSLNFGGSS [T13S]	0.14
SNARRSLNFGGSD [T13D]	0.195
SNARRSLNFGGDT [S12D]	0.153
SNARASANFGGST [R5A L7A]	0.0549
SNARRSQNFGGST [L7Q]	0.16
SNARRSLNFGGRT [S12R]	-0.00518

Block 2
Target: Interferon regulatory factor 3, full length, phosphomimetic (IRF3, Homo sapiens, UniProt Q14653, residues 1-427, S386D/S396D/S398D/S402D/T404D/S405D)
Method: protein-binding microarray
Molecule type: double-stranded DNA, one strand shown
Sample: in vitro
Tested at: 2540 nM top
Setting: 60-bp whole probe
Added: salmon DNA 0.4 mg/ml
Baseline: random background probes
Reading: higher = stronger binding
Constant ends, left off below: GCCTAGCAC … GTCTTGATTCGCTTGACGCTGCTG
Construct (chain): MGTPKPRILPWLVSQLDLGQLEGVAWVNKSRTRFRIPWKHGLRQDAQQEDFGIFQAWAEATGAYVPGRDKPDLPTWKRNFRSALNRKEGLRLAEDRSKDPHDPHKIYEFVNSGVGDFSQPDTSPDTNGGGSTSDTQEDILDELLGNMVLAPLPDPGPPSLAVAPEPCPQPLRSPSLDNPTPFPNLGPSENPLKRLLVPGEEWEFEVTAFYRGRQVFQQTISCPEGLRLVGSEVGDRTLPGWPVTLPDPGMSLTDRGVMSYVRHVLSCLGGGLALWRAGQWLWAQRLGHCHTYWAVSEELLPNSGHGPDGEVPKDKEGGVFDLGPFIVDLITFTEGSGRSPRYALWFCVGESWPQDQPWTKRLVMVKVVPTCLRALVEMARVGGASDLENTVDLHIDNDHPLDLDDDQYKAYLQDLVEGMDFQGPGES
Strand	fitted relative affinity
TTAGGACTGAACACTGGGTTAGTGCTA	-0.416 z-score
GACGGACTCGGTATCGGGACGTGCTAG	0.749 z-score
GACGGAATCGACACTGGGGACGTGCTA	-0.12 z-score
GTCGATTTCAGTTCCGAGACGTGCTAG	3.93 z-score
TCATCCTTTACTTTCTTACTGTGCTAG	1.87 z-score
GACGATATCAGTCTCGACACGTGCTAG	1.25 z-score
TTAGGACTGGGTTCCGGTTAGTGCTAG	0.595 z-score
GTAGGTATCGGACTGGGTTAGTGCTAG	1.13 z-score

Other studies, line by line
P1: PafA, mature enzyme, eGFP fusion (Elizabethkingia meningoseptica, UniProt Q9KJX5); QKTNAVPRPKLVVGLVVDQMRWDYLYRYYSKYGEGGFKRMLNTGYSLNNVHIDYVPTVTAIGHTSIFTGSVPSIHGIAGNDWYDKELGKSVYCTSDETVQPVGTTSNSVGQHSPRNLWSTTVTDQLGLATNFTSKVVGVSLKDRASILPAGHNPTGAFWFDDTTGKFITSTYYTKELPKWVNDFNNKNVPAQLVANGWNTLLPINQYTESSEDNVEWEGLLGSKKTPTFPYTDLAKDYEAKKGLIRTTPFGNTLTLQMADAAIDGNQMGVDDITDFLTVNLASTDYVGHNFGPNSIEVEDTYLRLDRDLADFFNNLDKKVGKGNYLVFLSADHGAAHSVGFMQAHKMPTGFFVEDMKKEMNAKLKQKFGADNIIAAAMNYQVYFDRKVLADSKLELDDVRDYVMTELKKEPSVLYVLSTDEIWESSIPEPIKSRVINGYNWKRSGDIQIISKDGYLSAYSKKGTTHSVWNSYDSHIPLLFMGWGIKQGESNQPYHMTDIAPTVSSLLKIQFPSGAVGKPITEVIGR
Substance	target	test	system	setting	how to read	quantity	result
P1 Y455G	inorganic phosphate, free oxyanion	microfluidic competitive inhibition	in vitro, cell-free expressed	not given, derived from inhibition constants, unchanged parent 615000 nM	lower = stronger binding	phosphate dissociation constant	397 µM
PhoQ, residues 284 288 289 292 302 303 TLMATV	PhoP, residues 12 14 15 18 19 LHHVQ (Escherichia coli, UniProt P23836)	Sort-seq, refers to: YFP reporter	E. coli	PhoQ-PhoP variant library, added: 10 µM Mg2+	baseline: high Mg2+ state, higher = stronger signaling	fold induction	92.2

Excerpt of the above (block 2):
Strand	fitted relative affinity
GTCGATTTCAGTTCCGAGACGTGCTAG	3.93 z-score
GTAGGTATCGGACTGGGTTAGTGCTAG	1.13 z-score
